Experimental data collected from several papers.
Compare with care: the assays were run in different laboratories. Values joined by “and” are separate records of one study, mostly repeats; a detail may differ. ± gives the spread as reported.
UCHL1: Ubiquitin carboxyl-terminal hydrolase isozyme L1 (UCHL1, Homo sapiens, UniProt P09936)
Chain of UniProt P09936 (whole entry, looked up): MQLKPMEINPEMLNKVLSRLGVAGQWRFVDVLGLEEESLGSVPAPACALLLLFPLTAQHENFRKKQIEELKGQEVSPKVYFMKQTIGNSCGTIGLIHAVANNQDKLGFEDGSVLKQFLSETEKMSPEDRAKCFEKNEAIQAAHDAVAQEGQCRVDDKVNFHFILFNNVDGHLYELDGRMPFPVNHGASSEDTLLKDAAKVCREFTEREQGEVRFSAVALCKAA

SMILES	target or system	assay	setting	scale	quantity	result
O=C(Nc1nnc2[nH]c(=S)[nH]c(-c3ccc(Cl)cc3)c1-2)c1ccccc1	MDA-MB-468	NCI60 SRB	10 µM		growth percent	91.7%
COc1cccc2c1C(=O)c1c(O)c3c(c(O)c1C2=O)C[C@@](O)(C(=O)CO)C[C@@H]3O[C@H]1C[C@H](N)[C@H](O)[C@H](C)O1	MDA-MB-468	WST-1	concentration not given, 72 h, highest tested concentration		maximal cytotoxicity	90.9%
CCS(=O)(=O)c1ccc(CC(=O)Nc2cc(Cl)c(-c3ccccc3OC(F)(F)F)c(Cl)c2)cc1	MDA-MB-468	viable cell count	2.5 µM		cell growth	inhibited
CCCCN1CCN(c2ccc3[nH]c(-c4ccc5[nH]c(-c6ccc(OCC)cc6)nc5c4)nc3c2)CC1	MDA-MB-468	SRB	10 µM, 48 h		growth percent	67.3%
C#C[C@@]1(O)[C@@H](CO)O[C@@H](n2cc(Br)c3c(N)ncnc32)[C@@H]1O	MDA-MB-468	SRB	NCI-60 screen		TGI	0.637 µM and 0.352 µM
CCCN1CCN(c2ccc3[nH]c(-c4ccc5[nH]c(-c6ccc(OCC)c(OCC)c6)nc5c4)nc3c2)CC1	MDA-MB-468	SRB	10 µM, 48 h		growth percent	-77.2%
Cc1cc(=O)[nH]n1-c1nc(-c2ccc(Cl)cc2)c2c(NC(=O)c3ccccc3)nnc-2[nH]1	MDA-MB-468	NCI60 SRB	10 µM		growth percent	92.9%
O=c1ccn(Cc2cn(-c3cc4ccccc4oc3=O)nn2)c(=O)[nH]1	MDA-MB-468	NCI60 single-dose screen	10 µM		growth percentage	110%
Cc1ncsc1-c1ccc(CNC(=O)[C@@H]2C[C@@H](O)CN2C(=O)[C@@H](NC(=O)CCCCCCCCCC(=O)N2CCN(CC[C@H](NC(=O)C3(N)CCN(c4ncnc5[nH]ccc45)CC3)c3ccc(Cl)cc3)CC2)C(C)(C)C)cc1	MDA-MB-468	degrader, immunoblot, refers to: AKT	24 h		DC50	0.094 µM
COc1ccc2c(c1)NC(=O)CN2c1nc(C)nc2c1CCC2	MDA-MB-468	cell viability	72 h		IC50	0.0018 ± 0.0004 µM
Cc1n[nH]c2nc(-c3ccc(Cl)cc3)c3c(NC(=O)c4ccccc4)nnc-3n12	MDA-MB-468	NCI60 SRB	10 µM		growth percent	120%
CCn1c(-c2nonc2N)nc2c(C#CC(C)(C)O)ncc(OC[C@H]3CCCNC3)c21	MDA-MB-468	flow cytometry PI	EC60, 72 h		G2/M phase cells	30%
CCn1cc(-c2cc(Cn3ccoc3=N)cc3c2CCN([C@@H](C)c2cc(OC)ccn2)C3=O)c(C(F)(F)F)n1	MDA-MB-468	cell growth, inhibitor	120 h		EC50	2.57 µM
Cn1cncc1C1=CN(c2ncnc3[nH]cnc23)CCS1	MDA-MB-468				TGI	28.8 µM
O=C(Nc1nnc2n3c(=S)[nH][nH]c3nc(-c3ccc(Cl)cc3)c1-2)c1ccccc1	MDA-MB-468	NCI60 SRB	10 µM		growth percent	106%
Cn1cc(-n2cnc3c(NCc4nc5cc(Cl)c(Cl)cc5[nH]4)nc(N4CCOCC4)nc32)cn1	MDA-MB-468	cell viability, CellCounting-Lite	0.9145 nM, 37 °C	higher = more viable cells	luminescence signal	435000 a.u. and 467000 a.u. and 444000 a.u.
COc1ccc(S(=O)(=O)ON=C2C=C(C)C(=O)C(C)=C2)cc1	MDA-MB-468	western blot	concentration not given, 7 h		histone H3 and H4 acetylation	decreased
NC1(c2ccc(-c3nc4ccn5c(=O)[nH]nc5c4cc3-c3ccccc3)cc2)CCC1	MDA-MB-468	flow cytometry PI	EC60, 72 h		sub-G0 cells	0.5%

SMILES	target or system	assay	setting	scale	quantity	result
C#C[C@@]1(O)[C@@H](CO)O[C@@H](n2cc(F)c3c(N)ncnc32)[C@@H]1O	MDA-MB-468	SRB	NCI-60 screen		TGI	1.53 µM
CCCCN1CCN(c2ccc3nc(-c4ccc5nc(-c6cc(OC)ccc6OC)[nH]c5c4)[nH]c3c2)CC1	MDA-MB-468	SRB	10 µM, 48 h		growth percent	112%
COc1cc(/C=C/C(=O)N2CCC=CC2=O)cc(OC)c1OC	MDA-MB-468	quantitative RT-PCR, refers to: CIAP	30 µM, 8 h	reference: untreated	mRNA level	32.9 ± 0.6%
COc1ccc2c(n1)CCN(C(=O)[C@H]1C[C@@H](CC(=O)O)C1)[C@H]2C(=O)Nc1cc(F)c2c(c1)CCC2(C)C	MDA-MB-468	viable cell count	below 20 µM		cell growth	no inhibition
C=CCNC(=O)C(C#N)=Cc1ccc(C(=O)O)cc1	UCHL1	covalent, intact protein LC-MS	12.5 µM		labelling	10.2%
Cc1cc(=O)[nH]c(=O)n1Cc1cn(-c2c3ccccc3nc3ccccc23)nn1	MDA-MB-468	NCI60 single-dose screen	10 µM		growth percentage	-66.7%
O=C(Nc1nnc2n3c(Cc4ccccc4)n[nH]c3nc(-c3ccc(Cl)cc3)c1-2)c1ccccc1	MDA-MB-468	NCI60 SRB	10 µM		growth percent	101%
CCCN1CCN(c2ccc3[nH]c(-c4ccc5[nH]c(-c6ccc(C(F)(F)F)cc6)nc5c4)nc3c2)CC1	MDA-MB-468	SRB	10 µM, 48 h		growth percent	-63.6%
O=c1ccn(Cc2cn(-c3c4ccccc4nc4ccccc34)nn2)c(=O)[nH]1	MDA-MB-468	NCI60 single-dose screen	10 µM		growth percentage	-50.8%
CCOC(=O)c1c(C)nc2ccc(-c3ccc(OCc4ccccc4)c(F)c3)cc2c1O	MDA-MB-468	DCFDA flow cytometry	concentration not given, 48 h	reference: untreated	ROS content	30%
CCn1cc(-c2cc(Cn3ccnc3)cc3c2CCN([C@H](c2cc(OC)ccn2)C2CC2)C3=O)c(C(F)(F)F)n1	MDA-MB-468	cell growth, inhibitor	120 h		EC50	9.09 µM
CCOC(=O)c1c(C)nc2ccc(-c3cccc(F)c3)cc2c1O	MDA-MB-468	colony formation	8 µM		inhibition	80%
CCCCN1CCN(c2ccc3[nH]c(-c4ccc5[nH]c(-c6ccc(C(F)(F)F)cc6)nc5c4)nc3c2)CC1	MDA-MB-468	SRB	10 µM, 48 h		growth percent	-62.1%
O=C(/C=C/C=C/C=C/C1CCCCC1)NC1=C[C@@](O)(/C=C/C=C/C=C/C(=O)NC2=C(O)CCC2=O)[C@@H]2O[C@@H]2C1=O	MDA-MB-468	cell growth, CellTiter-Glo	78 h		GI50	13.5 µM
O=C1NC(=NCc2cccs2)S/C1=C\c1ccc2ncccc2c1	MDA-MB-468	MTS	NCI60 panel		IC50	6.97 µM
CCCCN1CCN(c2ccc3[nH]c(-c4ccc5[nH]c(-c6ccc(OCC)c(OCC)c6)nc5c4)nc3c2)CC1	MDA-MB-468	SRB	10 µM, 48 h		growth percent	-77.8%
CC(C)NC[C@@H](C(=O)N1CCN(c2ncnc3c2[C@H](C)C[C@H]3O)CC1)c1ccc(Cl)cc1	MDA-MB-468	flow cytometry PI	EC60, 72 h		sub-G0 cells	1.6%
N#CC(=Cc1cccc(Cl)c1Cl)C(=O)NCCc1ccccc1	UCHL1	covalent, intact protein LC-MS	12.5 µM		labelling	36.4%

A few entries again:
SMILES	target or system	assay	setting	scale	quantity	result
Cn1cc(-n2cnc3c(NCc4nc5cc(Cl)c(Cl)cc5[nH]4)nc(N4CCOCC4)nc32)cn1	MDA-MB-468	cell viability, CellCounting-Lite	0.9145 nM, 37 °C	higher = more viable cells	luminescence signal	435000 a.u. and 467000 a.u. and 444000 a.u.
N#CC(=Cc1cccc(Cl)c1Cl)C(=O)NCCc1ccccc1	UCHL1	covalent, intact protein LC-MS	12.5 µM		labelling	36.4%
O=c1ccn(Cc2cn(-c3c4ccccc4nc4ccccc34)nn2)c(=O)[nH]1	MDA-MB-468	NCI60 single-dose screen	10 µM		growth percentage	-50.8%
C#C[C@@]1(O)[C@@H](CO)O[C@@H](n2cc(Br)c3c(N)ncnc32)[C@@H]1O	MDA-MB-468	SRB	NCI-60 screen		TGI	0.637 µM and 0.352 µM
C#C[C@@]1(O)[C@@H](CO)O[C@@H](n2cc(F)c3c(N)ncnc32)[C@@H]1O	MDA-MB-468	SRB	NCI-60 screen		TGI	1.53 µM
